Measurements from different studies.
Every numbered part comes from another study and shows a few of its results, in no order. Several values in a cell are separate wells, animals, samples, runs or records.
Chain of UniProt Q9Y2U5 (whole entry, looked up): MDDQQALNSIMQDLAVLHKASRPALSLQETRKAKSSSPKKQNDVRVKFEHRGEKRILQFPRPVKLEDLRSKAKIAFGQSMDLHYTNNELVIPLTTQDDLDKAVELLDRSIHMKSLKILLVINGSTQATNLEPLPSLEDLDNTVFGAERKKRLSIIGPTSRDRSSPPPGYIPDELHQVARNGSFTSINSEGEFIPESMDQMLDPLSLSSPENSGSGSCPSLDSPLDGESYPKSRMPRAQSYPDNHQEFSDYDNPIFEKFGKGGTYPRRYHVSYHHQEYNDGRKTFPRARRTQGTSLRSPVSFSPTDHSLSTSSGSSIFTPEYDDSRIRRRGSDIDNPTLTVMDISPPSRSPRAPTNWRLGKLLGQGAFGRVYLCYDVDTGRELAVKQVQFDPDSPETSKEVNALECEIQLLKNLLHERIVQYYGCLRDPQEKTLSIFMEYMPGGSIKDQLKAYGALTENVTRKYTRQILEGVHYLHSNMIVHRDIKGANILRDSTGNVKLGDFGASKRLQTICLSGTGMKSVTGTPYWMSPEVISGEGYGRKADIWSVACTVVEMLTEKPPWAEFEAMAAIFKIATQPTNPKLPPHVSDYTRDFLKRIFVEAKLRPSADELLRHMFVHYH
Chain of UniProt P34947 (whole entry, looked up): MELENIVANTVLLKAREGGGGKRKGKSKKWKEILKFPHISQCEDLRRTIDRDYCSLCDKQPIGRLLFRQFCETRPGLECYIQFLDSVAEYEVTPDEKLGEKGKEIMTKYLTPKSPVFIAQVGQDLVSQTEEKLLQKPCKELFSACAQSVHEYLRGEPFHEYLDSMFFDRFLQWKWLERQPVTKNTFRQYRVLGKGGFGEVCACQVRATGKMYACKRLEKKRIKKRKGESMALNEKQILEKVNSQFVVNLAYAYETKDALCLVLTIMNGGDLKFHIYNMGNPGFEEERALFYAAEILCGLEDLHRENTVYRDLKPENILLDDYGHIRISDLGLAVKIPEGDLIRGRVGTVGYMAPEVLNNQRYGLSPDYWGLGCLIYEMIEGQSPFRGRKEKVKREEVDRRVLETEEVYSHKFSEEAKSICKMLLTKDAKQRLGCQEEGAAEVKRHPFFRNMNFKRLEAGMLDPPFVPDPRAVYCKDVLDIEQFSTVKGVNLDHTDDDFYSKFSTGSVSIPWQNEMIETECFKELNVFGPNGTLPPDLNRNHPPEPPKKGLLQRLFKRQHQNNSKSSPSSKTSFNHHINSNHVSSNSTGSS
Chain of UniProt P50406 (whole entry, looked up): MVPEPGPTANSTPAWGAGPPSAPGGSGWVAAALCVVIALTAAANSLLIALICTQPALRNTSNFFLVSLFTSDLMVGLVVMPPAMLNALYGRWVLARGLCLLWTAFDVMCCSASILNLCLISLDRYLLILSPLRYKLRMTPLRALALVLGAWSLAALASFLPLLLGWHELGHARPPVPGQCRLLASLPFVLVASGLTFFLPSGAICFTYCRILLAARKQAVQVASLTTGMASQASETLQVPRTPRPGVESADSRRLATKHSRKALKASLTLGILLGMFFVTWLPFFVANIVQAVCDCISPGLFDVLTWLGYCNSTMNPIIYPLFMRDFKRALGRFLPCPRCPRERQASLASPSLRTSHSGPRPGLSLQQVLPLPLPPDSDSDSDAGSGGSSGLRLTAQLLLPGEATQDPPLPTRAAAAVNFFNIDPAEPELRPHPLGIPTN
Chain of UniProt Q8TD19 (whole entry, looked up): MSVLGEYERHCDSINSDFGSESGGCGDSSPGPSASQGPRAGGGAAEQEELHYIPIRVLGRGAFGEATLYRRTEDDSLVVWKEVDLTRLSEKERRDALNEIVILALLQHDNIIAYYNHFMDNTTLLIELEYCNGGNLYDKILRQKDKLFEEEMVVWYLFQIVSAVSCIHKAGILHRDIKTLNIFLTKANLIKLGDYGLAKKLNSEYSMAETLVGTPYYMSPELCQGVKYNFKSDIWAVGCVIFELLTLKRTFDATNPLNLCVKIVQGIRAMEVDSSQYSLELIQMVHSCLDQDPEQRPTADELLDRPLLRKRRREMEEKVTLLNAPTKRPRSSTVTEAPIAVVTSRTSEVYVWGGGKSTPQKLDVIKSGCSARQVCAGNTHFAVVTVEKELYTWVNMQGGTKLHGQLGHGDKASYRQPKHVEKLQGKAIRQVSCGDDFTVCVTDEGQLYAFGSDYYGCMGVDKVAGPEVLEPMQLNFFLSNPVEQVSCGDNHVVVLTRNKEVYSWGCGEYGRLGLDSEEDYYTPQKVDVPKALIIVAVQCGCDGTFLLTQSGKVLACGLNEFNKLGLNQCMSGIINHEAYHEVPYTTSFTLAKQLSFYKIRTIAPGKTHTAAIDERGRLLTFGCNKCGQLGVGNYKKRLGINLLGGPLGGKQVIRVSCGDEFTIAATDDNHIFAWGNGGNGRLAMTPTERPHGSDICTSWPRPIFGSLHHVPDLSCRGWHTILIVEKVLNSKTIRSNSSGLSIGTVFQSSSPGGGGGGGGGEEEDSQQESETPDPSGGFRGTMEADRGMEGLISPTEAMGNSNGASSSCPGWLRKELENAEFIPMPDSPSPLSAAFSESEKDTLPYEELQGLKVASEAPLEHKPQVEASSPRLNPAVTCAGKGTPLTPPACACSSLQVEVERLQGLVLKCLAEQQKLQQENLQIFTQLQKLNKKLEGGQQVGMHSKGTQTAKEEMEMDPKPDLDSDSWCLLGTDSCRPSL
Chain of UniProt P07949 (whole entry, looked up): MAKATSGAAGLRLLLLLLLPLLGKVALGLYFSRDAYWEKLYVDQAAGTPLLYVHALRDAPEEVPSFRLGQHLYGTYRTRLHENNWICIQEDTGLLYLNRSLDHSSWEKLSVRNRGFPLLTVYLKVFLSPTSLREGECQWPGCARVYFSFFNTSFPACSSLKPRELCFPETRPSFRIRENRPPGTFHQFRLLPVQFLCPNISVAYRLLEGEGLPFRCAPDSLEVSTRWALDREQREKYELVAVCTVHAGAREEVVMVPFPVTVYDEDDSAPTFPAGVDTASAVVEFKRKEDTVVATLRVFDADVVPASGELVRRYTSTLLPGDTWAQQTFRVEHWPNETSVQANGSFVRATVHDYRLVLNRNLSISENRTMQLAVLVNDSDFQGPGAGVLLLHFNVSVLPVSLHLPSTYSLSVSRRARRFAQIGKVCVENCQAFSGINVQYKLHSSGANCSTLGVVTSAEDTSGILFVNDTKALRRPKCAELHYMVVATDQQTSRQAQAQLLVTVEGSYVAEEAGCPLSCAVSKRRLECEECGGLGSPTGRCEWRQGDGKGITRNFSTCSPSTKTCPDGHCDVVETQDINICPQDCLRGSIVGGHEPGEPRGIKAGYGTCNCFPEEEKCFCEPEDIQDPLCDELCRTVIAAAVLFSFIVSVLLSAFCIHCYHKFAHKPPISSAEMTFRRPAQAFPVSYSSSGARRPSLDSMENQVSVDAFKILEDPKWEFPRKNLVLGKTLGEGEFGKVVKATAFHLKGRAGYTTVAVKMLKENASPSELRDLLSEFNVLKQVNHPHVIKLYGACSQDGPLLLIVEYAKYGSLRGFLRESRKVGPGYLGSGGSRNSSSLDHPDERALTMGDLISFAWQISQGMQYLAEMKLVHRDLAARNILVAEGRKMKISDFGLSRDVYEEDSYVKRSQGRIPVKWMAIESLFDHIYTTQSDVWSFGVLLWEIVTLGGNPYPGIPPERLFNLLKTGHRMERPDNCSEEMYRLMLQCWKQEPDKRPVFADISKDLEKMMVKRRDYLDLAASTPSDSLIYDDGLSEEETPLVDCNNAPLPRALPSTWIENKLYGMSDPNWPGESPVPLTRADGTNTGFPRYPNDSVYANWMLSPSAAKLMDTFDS
Chain of UniProt Q14289 (whole entry, looked up): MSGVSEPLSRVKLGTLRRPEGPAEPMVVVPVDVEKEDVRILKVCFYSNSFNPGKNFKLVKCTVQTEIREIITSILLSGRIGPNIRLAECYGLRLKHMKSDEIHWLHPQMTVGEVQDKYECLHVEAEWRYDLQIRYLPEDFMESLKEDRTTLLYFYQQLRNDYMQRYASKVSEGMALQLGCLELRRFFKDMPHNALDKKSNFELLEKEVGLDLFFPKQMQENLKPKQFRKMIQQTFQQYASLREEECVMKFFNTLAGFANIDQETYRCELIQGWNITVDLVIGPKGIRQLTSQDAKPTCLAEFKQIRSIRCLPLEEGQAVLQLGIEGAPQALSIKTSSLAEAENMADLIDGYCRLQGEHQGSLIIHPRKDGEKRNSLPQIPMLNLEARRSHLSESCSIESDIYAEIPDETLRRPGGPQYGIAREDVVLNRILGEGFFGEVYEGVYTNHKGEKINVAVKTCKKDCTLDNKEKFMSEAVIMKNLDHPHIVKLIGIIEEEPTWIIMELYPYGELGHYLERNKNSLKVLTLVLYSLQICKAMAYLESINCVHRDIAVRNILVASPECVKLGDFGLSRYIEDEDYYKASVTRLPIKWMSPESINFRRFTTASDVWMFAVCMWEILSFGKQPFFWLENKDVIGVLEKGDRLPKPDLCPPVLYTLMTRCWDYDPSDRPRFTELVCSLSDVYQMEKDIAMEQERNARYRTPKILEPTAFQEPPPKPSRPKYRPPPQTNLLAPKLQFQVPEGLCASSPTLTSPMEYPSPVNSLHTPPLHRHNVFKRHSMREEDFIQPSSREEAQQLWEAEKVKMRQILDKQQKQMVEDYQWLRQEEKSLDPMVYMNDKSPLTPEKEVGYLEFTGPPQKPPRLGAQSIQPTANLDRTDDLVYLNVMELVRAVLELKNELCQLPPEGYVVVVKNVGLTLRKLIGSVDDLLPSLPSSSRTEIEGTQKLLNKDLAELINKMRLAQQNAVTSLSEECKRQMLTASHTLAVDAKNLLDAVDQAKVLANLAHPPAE
Chain of UniProt Q99720 (whole entry, looked up): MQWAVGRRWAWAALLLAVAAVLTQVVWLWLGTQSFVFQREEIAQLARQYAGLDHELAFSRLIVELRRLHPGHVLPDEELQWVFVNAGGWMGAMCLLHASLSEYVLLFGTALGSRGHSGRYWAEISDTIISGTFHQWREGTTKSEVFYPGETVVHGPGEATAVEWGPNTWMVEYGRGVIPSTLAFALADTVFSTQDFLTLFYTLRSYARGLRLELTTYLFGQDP

Set 1
Cell line: mouse MPNST tumor cells
Technique: high-content immunofluorescence imaging
Measured: nuclear SOX9
Concentration: 10 µM
Time: 12 h
Setting: mean of 2 replicates
Baseline: DMSO control
Reading: higher = more nuclear SOX9
SMILES	nuclear SOX9 intensity
CC(C)c1ccc2oc3nc(N)c(C(=O)O)cc3c(=O)c2c1	105 % of DMSO and 95.7 % of DMSO
CCCOc1ccn2c(C(C)=O)cc(-c3ccccc3S(C)(=O)=O)c2c1	108 % of DMSO
CN(C)c1ccccc1CN1CCCN(Cc2ccccc2N(C)C)C1c1ccncc1	227 % of DMSO

Set 2
Compound: NC(=O)c1ccc(N(C(N)=O)c2c(F)cccc2F)nc1-c1ccc(F)cc1F
Observed: enzyme activity
Mode: inhibitor
Concentration: 0.5 µM
Baseline: control
target	remaining activity
Proto-oncogene tyrosine-protein kinase receptor Ret (RET, Homo sapiens, UniProt P07949)	93.1%
Mitogen-activated protein kinase kinase kinase 2 (MAP3K2, Homo sapiens, UniProt Q9Y2U5)	122%
G protein-coupled receptor kinase 5 (GRK5, Homo sapiens, UniProt P34947)	103%
Serine/threonine-protein kinase Nek9 (NEK9, Homo sapiens, UniProt Q8TD19)	104%
Calcium/calmodulin-dependent protein kinase type 1D (CAMK1D, Homo sapiens, UniProt Q8IU85)	114%
NT-3 growth factor receptor (NTRK3, Homo sapiens, UniProt Q16288)	95.9%
Calcium/calmodulin-dependent protein kinase type 1G (CAMK1G, Homo sapiens, UniProt Q96NX5)	108%
Mitogen-activated protein kinase 10 (MAPK10, Homo sapiens, UniProt P53779)	98.4%
Protein-tyrosine kinase 2-beta (PTK2B, Homo sapiens, UniProt Q14289)	102%

Set 3
SMILES: Cn1nc(C(F)(F)F)cc1-c1cnc(N2CCc3cc(S(=O)(=O)Nc4c(F)cc(Cl)cc4F)cc(N4CCCC4=O)c32)nc1
Observed: cell-free assay
Concentration: 10 µM
target	inhibition [%]
5-hydroxytryptamine receptor 7 (HTR7, Homo sapiens, UniProt P34969)	4.51
Alpha-2B adrenergic receptor (ADRA2B, Homo sapiens, UniProt P18089)	18.5
Muscarinic acetylcholine receptor M2 (CHRM2, Homo sapiens, UniProt P08172)	-10.6
5-hydroxytryptamine receptor 6 (HTR6, Homo sapiens, UniProt P50406)	6.67
Histamine H4 receptor (HRH4, Homo sapiens, UniProt Q9H3N8)	10.9
Muscarinic acetylcholine receptor M5 (CHRM5, Homo sapiens, UniProt P08912)	7.43
D(3) dopamine receptor (DRD3, Homo sapiens, UniProt P35462)	2.14
Alpha-2C adrenergic receptor (ADRA2C, Homo sapiens, UniProt P18825)	17.9
Sigma non-opioid intracellular receptor 1 (SIGMAR1, Homo sapiens, UniProt Q99720)	12.8
Alpha-1A adrenergic receptor (ADRA1A, Homo sapiens, UniProt P35348)	6.96

Set 4
Target: Diamine acetyltransferase 1 (Homo sapiens, UniProt P21673)
Mode: inhibitor
Concentration: 10 µM
Baseline: control
Residues (P21673 1-171): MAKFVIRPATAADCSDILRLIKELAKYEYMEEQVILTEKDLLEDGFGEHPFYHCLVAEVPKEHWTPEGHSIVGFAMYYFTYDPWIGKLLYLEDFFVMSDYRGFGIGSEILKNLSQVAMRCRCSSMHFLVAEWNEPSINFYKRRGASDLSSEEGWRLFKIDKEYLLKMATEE
Compound	remaining activity [%]
C=C1CC[C@H]2O[C@]2(C)CC[C@@H]2[C@@H]1CC2(C)C	109
COc1ccc(C(=O)O)cc1O	86.2
O=C(/C=C/c1ccc(O)c(O)c1)O[C@H]1[C@H](O)C[C@](O)(C(=O)O)C[C@H]1O	102

A few entries again (set 1):
SMILES	nuclear SOX9 intensity
CCCOc1ccn2c(C(C)=O)cc(-c3ccccc3S(C)(=O)=O)c2c1	108 % of DMSO
CC(C)c1ccc2oc3nc(N)c(C(=O)O)cc3c(=O)c2c1	105 % of DMSO and 95.7 % of DMSO
CN(C)c1ccccc1CN1CCCN(Cc2ccccc2N(C)C)C1c1ccncc1	227 % of DMSO
